Assay results of several laboratories.
Each line is one published result; not all experiments were run side by side. Values joined by “and” are separate records of one study, mostly repeats; a detail may differ. Numbers after ± are the reported error.

Structure (SMILES) | tested on | assay | system | setting | how to read | quantity | value
O=C(O)c1cccnc1C(=O)O |  | binding, MIDAS equilibrium dialysis LC-MS | A2AR-BRIL thermostabilized | concentration not given | reference: no-protein control | log2 fold change | 0.0822
COc1ccc(-c2cncc(N[C@@H](C)c3cccc(NC(=O)c4cncc(C)c4)c3)n2)cc1OC |  | refers to: rno-miR-365-3p | rat SU5416/hypoxia model, lung | dose not given | reference: SU5416/hypoxia vehicle | fold change | 0.835
C[C@H]1C[C@H]2CSC(N)=N[C@@]2(c2nc(NC(=O)c3ccc(OC(F)F)cn3)cs2)CO1 |  | refers to: Aβx-40 | healthy adults, plasma | 50 mg once daily, day 4 | reference: placebo | percent change from baseline | -63.5%
CC[C@H]1[C@@H](O)[C@@H]2[C@H](CC[C@]3(C)[C@@H]([C@H](C)CCC(=O)O)CC[C@@H]23)[C@@]2(C)CC[C@@H](O)C[C@@H]12 |  |  | C57BL/6J mouse, AMLN diet NASH model | dose not given, terminal |  | plasma AST | 210 ± 37 U/L
OC(CCN1CCCCC1)(c1ccccc1)C1CC2C=CC1C2 (stereo not drawn) |  | resting-state EEG | healthy elderly humans | oral, 4 mg, eyes closed, LS mean |  | EEG Beta3-power Pz-O1 | 2.2 µV²
CO[C@H]1CC[C@H](N2C(=O)CNc3ncc(-c4ccc(C(C)(C)O)nc4)nc32)CC1 |  | flow cytometry | stimulated B cells, human, blood | 45 mg single dose, 5 h, median | reference: baseline | pS6RP change from baseline | -73.5%
NC(=O)c1cnc2[nH]ccc2c1N[C@@H]1[C@@H]2CC3C[C@H]1C[C@@](O)(C3)C2 |  | CD8+ central memory T cells, flow cytometry | Caucasian humans, peripheral blood | 60 mg single dose | reference: baseline | percent change | 0.93%
Cn1cc(Nc2nc(N)nc(-c3cccc(-n4ccc5cc(C6CC6)cc(F)c5c4=O)c3CO)n2)cn1 |  | CD63 upregulation, anti-IgE-induced | human, multiple ascending dose, whole blood basophils ex vivo | 50 mg twice daily, day 14, 1 h |  | inhibition | 61.6%
COc1ccc(F)cc1C(=O)NCc1ccc(-c2nn([C@@H](C)C(F)(F)F)c(N)c2C(N)=O)cc1 |  |  | Waldenström macroglobulinemia patients | dose not given, at least one prior BTK inhibitor |  | overall response rate | 69%
Cc1cc([C@H]2C[C@H]3[C@@H](CF)SC(N)=N[C@@]3(c3ccc(F)cc3F)CO2)on1 |  | refers to: Aβx-40 | Mus musculus wild-type, cerebrospinal fluid | subcutaneous, 100 mg/kg, 1 h |  | Aβ40 level | 0.75 ng/mL
Cn1cc(-c2ccc(-c3cncc(Cl)c3N3CCC4(CCNC4=O)CC3)cc2)cn1 | COLO 205 | microarray, refers to: E2F1 |  | concentration not given, 4 h | reference: untreated cells | fold change in expression | -1.85
O=P(O)(O)C(Cl)(Cl)P(=O)(O)O |  | endothelial activation, immunostaining | mouse, sham, cortical capillaries | dose not given |  | VCAM-1 level | 6.24 MFI and 5.45 MFI
C[C@H](N)C(=O)O |  | binding, MIDAS equilibrium dialysis LC-MS | A2AR-BRIL thermostabilized | concentration not given | reference: no-protein control | log2 fold change | -0.168
N#C/C(=C\c1ccccc1)n1cncn1 |  |  |  | pH 7.4 |  | β-elimination rate constant | 0.009 min⁻¹
O=P(O)(O)OC[C@H]1O[C@H](OP(=O)(O)OP(=O)(O)O)[C@H](O)[C@@H]1O |  | binding, MIDAS equilibrium dialysis LC-MS | A2AR-BRIL thermostabilized | concentration not given | reference: no-protein control | log2 fold change | -0.562
C[C@H](Oc1ccc(Br)cc1-c1ccon1)C(=O)O |  | muscle velocity recovery cycles | human, tibialis anterior muscle | 600 mg once daily, multiple doses, frequency ramp, last response at 15 Hz | reference: placebo | latency change | 0.623%
Cc1nc(C#Cc2cccnc2)cs1 |  | spontaneous epileptiform population spikes, field recording | CA3 pyramidal neurons, rat, hippocampal slice | 10 µM, 10 min | reference: baseline | inter-event interval | 143 ± 14.4%
CC1(C)OCCn2c1nc1c(N3CCOCC3)nc(-c3cnc(N)nc3)nc12 |  | RNA sequencing, refers to: HALLMARK_KRAS_SIGNALING_DN | MB002 tumour | concentration not given | reference: vehicle, direction not given | GSEA enrichment score | 0.151
CC(C)[C@H](C(=O)Nc1ccc(C(=O)NO)cc1)c1ccccc1 |  | volumetric MRI | human, right C1 intradural meningioma | dose not given, day 809 | reference: baseline | tumour volume change | 20.5%
Cc1n[nH]c2ccc(-c3cc(OC[C@@H](N)Cc4ccccc4)cnc3-c3ccoc3)cc12 |  | kinase binding, competitor, MIB/MS competition, refers to: KSP1 | Candida albicans cell lysate | 100 nM | reference: DMSO | log2 fold change | 0.0498
COc1cc2nccc(Oc3ccc(NC(=O)c4cc5c(n(-c6ccccc6)c4=O)CCCC5=O)nc3)c2cc1OC |  | logrank | MOLM-13 luc/gfp xenograft, mice | diet, 0.013% in feed | reference: control over treated | hazard ratio | 3.01
CCC(C(=O)O)C(=O)O |  | binding, MIDAS equilibrium dialysis LC-MS | A2AR-BRIL thermostabilized | concentration not given | reference: no-protein control | log2 fold change | -0.327
COc1nnc2ccc(N3CCC(c4ccc(OCCN5CCN(C)C(=O)[C@H]5C)cc4)CC3)nn12 |  |  | human patients | 10 mg twice daily, 1.5-fold above baseline, monotherapy and combination cohorts |  | time above HEXIM1 threshold | 7.82 h
CCOc1c([C@H](C)n2nc(C)c3c(N)ncnc32)cc(Cl)c(F)c1[C@@H]1CNC(=O)C1 |  | Olink proximity extension proteomics, refers to: TNFB | human FL or MZL patients, plasma | dose not given, week 8 | reference: baseline | plasma protein level change | -54%

Structure (SMILES) | tested on | assay | system | setting | how to read | quantity | value
O=C(O)CNC(=O)Cc1ccccc1 |  |  | ventricular cardiomyocytes, C57BL/6 mouse | dose not given, 0.556 s |  | sarcomere length | 1.62 µm
Cc1ccc(C(=O)Nc2ccnc(S(N)(=O)=O)c2)c(N2CCCC(F)(F)CC2)n1 |  |  | rhesus macaque | intravenous, 1.3 mg/kg, added: laser 1400 mA | reference: pre-treatment | laser-evoked flare size | decreased
Cc1noc(C)c1-c1cc(C(O)(c2ccccn2)c2ccccn2)c2nc(C3CC3)[nH]c2c1 |  | refers to: CCR2 expression | human, peripheral blood | 3 mg, day 8, 1599 study |  | maximum inhibition | 43.2%
NC(=O)C1=CN([C@@H]2O[C@H](COP(=O)(O)OP(=O)(O)OC[C@H]3O[C@@H](n4cnc5c(N)ncnc54)[C@H](O)[C@@H]3O)[C@@H](O)[C@H]2O)C=CC1 |  | binding, MIDAS equilibrium dialysis LC-MS | A2AR-BRIL thermostabilized | concentration not given | reference: no-protein control | log2 fold change | -0.987
C[C@@H]1CCC[C@H](n2cnc(-c3cc(Cl)ccc3-n3cc(Cl)nn3)cc2=O)c2cc(ccn2)-c2c(cnn2C(F)F)NC1=O |  |  | dog plasma | IC2.5× aPTT, Actin FS reagent |  | concentration for aPTT prolongation | 4 µM
N#Cc1ccn2c(-c3ccncc3)c(-c3ccc(F)cc3)nc2c1 |  | kinase binding, competitor, MIB/MS competition, refers to: YCK2 | Candida albicans cell lysate | 10 µM | reference: DMSO | log2 fold change | -4.4
N#CCC1CCN(c2nc(Nc3ccc(N4CCC(O)CC4)cc3)c3c(=O)[nH]ncc3n2)CC1 |  | Olink multiplex | human, serum | 40 mg, day 15, unit not given | reference: baseline | GIF level change | 1.32
CCC(C)C(=O)C(=O)O (stereo not drawn) |  | binding, MIDAS equilibrium dialysis LC-MS | A2AR-BRIL thermostabilized | concentration not given | reference: no-protein control | log2 fold change | -0.459
O=C1O[C@H]([C@@H](O)CO)C(O)=C1O |  | FRAP |  | 80 µM |  | ferric reducing power | 37.6%
C[C@H]1O[C@@H](O[C@H]2CC[C@@]3(C)[C@@H](CC[C@]4(C)[C@@H]3C=C[C@]35OC[C@@]6(CCC(C)(C)C[C@H]63)[C@@H](O)C[C@]54C)[C@]2(C)CO)[C@H](O)[C@@H](O[C@@H]2O[C@H](CO)[C@@H](O)[C@H](O)[C@H]2O)[C@H]1O |  | H&E staining | mice, normal control diet, liver | dose not given, high dose |  | adipose area | 1.81% and 1.84% and 2.06%
c1ccc(-c2n[nH]cc2-c2ccnc3ccccc23)nc1 |  | kinase binding, competitor, MIB/MS competition, refers to: FPK1 | Candida albicans cell lysate | 100 nM | reference: DMSO | log2 fold change | 1.45
CCCCC1(CCCC)CN(c2ccccc2)c2cc(SC)c(OCC(=O)N[C@@H](C(=O)NCC(=O)O)c3ccccc3)cc2S(=O)(=O)C1 |  | refers to: 7α-hydroxy-4-cholesten-3-one | human, plasma | 5 mg once daily, day 14 |  | plasma C4 | 63.6 ng/mL
C=CCn1c(=O)c2cnc(Nc3ccc(N4CCN(C)CC4)cc3)nc2n1-c1ccc2c(n1)[C@@](O)(CC)CC2 |  |  | SW837, NOD/SCID mice, xenograft | oral, 80 mg/kg once daily, day 35 | reference: vehicle | tumour growth inhibition | 82.9%
CSCCNc1nc(SCCC(F)(F)F)nc2c1ncn2[C@@H]1O[C@H](COP(=O)(O)OP(=O)(O)C(Cl)(Cl)P(=O)(O)O)[C@@H](O)[C@H]1O |  | light transmittance aggregometry | human patients, platelet-rich plasma | dose not given, 3 h, added: ADP 20 µM | reference: patients | patients with IPA above 90% | 0%
NCC(=O)Nc1cncc(-c2nn3c(=O)cc(N4CCNCC4)nc3s2)c1 |  | light transmission aggregometry | human, stable CAD on aspirin, platelets ex vivo | subcutaneous, 0.075 mg/kg, 24 h post-dose, mean, added: ADP 20 µM |  | inhibition of platelet aggregation | 4.08%
CC(C)NCC(O)c1ccc(O)c(O)c1 (stereo not drawn) |  |  | ventricular cardiomyocytes, C57BL/6 mouse | dose not given, 0.012 s |  | sarcomere length | 1.72 µm
Cc1coc([C@H]2C[C@H]3[C@@H](CF)SC(N)=N[C@@]3(c3ccc(F)cc3F)CO2)n1 |  | refers to: Aβx-40 | Mus musculus wild-type, cerebrospinal fluid | subcutaneous, 80 mg/kg, 3 h |  | Aβ40 level | 0.32 ng/mL
Cn1cc(Nc2nccc(-c3ccc4c(c3)CN(C3COC3)CC[C@H]4NC(=O)c3cn(C(C)(C)C)nn3)n2)cn1 |  | refers to: Dendritic Cell Maturation | splenic B cells, mouse | in vivo, 30 mg/kg, IgD-activated B cells | reference: vehicle, positive = activation | pathway activation z-score | 3.41
Cc1cc([C@H]2C[C@H]3[C@@H](C)SC(N)=N[C@@]3(c3ccc(F)cc3F)CO2)on1 |  | refers to: Aβx-40 | Mus musculus wild-type, cerebrospinal fluid | subcutaneous, 50 mg/kg, 5 h |  | Aβ40 level | 0.26 ng/mL
OC[C@H]1O[C@H](OC[C@H]2O[C@H](O[C@]3(CO)O[C@H](CO)[C@@H](O)[C@@H]3O)[C@H](O)[C@@H](O)[C@@H]2O)[C@H](O)[C@@H](O)[C@H]1O |  | binding, MIDAS equilibrium dialysis LC-MS | A2AR-BRIL thermostabilized | concentration not given | reference: no-protein control | log2 fold change | -0.142
COc1cccc2c1C(=O)c1c(O)c3c(c(O)c1C2=O)C[C@@](O)(C(=O)CO)C[C@@H]3O[C@H]1C[C@H](N)[C@H](O)[C@H](C)O1 |  | organoid viability, CellTiter-Glo 3D | sample A colorectal cancer organoid, human | 6 days |  | IC50 | 4.63 nM
N#Cc1ccc2c(c1)[C@H]1CCCN(C(=O)c3ccc4[nH]cnc4c3)[C@H]1C2 |  |  | T2DM patients with overweight or obesity, plasma | oral, 40 mg, day 15 (360 h), multiple dosing, mean |  | fasting plasma glucose | 152 mg/dL
N#Cc1ccc2c(c1)[C@H]1CCCN(C(=O)c3ccc4[nH]cnc4c3)[C@H]1C2 |  | refers to: FPG | human | 240 mg once daily, day 28, adjusted mean |  | change from baseline | 6.8 mg/dL
NC(=O)NCCC[C@H](N)C(=O)O |  | binding, MIDAS equilibrium dialysis LC-MS | A2AR-BRIL thermostabilized | concentration not given | reference: no-protein control | log2 fold change | 0.795

Excerpt of the above:
Structure (SMILES) | tested on | assay | system | setting | how to read | quantity | value
C[C@@H]1CCC[C@H](n2cnc(-c3cc(Cl)ccc3-n3cc(Cl)nn3)cc2=O)c2cc(ccn2)-c2c(cnn2C(F)F)NC1=O |  |  | dog plasma | IC2.5× aPTT, Actin FS reagent |  | concentration for aPTT prolongation | 4 µM
CC(C)[C@H](C(=O)Nc1ccc(C(=O)NO)cc1)c1ccccc1 |  | volumetric MRI | human, right C1 intradural meningioma | dose not given, day 809 | reference: baseline | tumour volume change | 20.5%
C=CCn1c(=O)c2cnc(Nc3ccc(N4CCN(C)CC4)cc3)nc2n1-c1ccc2c(n1)[C@@](O)(CC)CC2 |  |  | SW837, NOD/SCID mice, xenograft | oral, 80 mg/kg once daily, day 35 | reference: vehicle | tumour growth inhibition | 82.9%
O=C1O[C@H]([C@@H](O)CO)C(O)=C1O |  | FRAP |  | 80 µM |  | ferric reducing power | 37.6%
COc1cccc2c1C(=O)c1c(O)c3c(c(O)c1C2=O)C[C@@](O)(C(=O)CO)C[C@@H]3O[C@H]1C[C@H](N)[C@H](O)[C@H](C)O1 |  | organoid viability, CellTiter-Glo 3D | sample A colorectal cancer organoid, human | 6 days |  | IC50 | 4.63 nM
